# Published values from different studies.
# Protocols differ between the studies behind these lines. ± gives the spread as reported.
Structure (SMILES),system,conditions,Cmax
COc1cc(C)c(Cc2ccc(O)cc2)cc1[C@@H]1S[C@H](CO)[C@@H](O)[C@H](O)[C@H]1O,"Japanese T2DM patients, plasma","0.5 mg luseogliflozin, day 1, once daily",0.726 ± 0.136 ng/mL
C[Si]1(C[C@H](CN)CC(=O)O)CCCC1,"male Sprague-Dawley rat, plasma","oral, 100 mg/kg, single dose",112 µM
NC(=O)/C=C/c1cccc(S(=O)(=O)Nc2ccccc2)c1,"patients with normal liver function, plasma","intravenous, 400 mg/m^2 belinostat, single 30 min infusion, cycle 1 day -7, mean",1260 ng/mL
N#Cc1cnc2cc(OCC3CCNCC3)c(F)cc2c1Nc1cc(F)c(OCc2cccc(Cl)n2)cc1Cl,"male Sprague-Dawley rat, plasma","oral, 30 mg/kg",256 ng/mL
CC(C)(Sc1cc[n+]([O-])cc1-c1ccc(C#N)c2ccccc12)C(=O)OC1OC(C(=O)O)C(O)C(O)C1O (stereo not drawn),plasma,"oral, 15 mg, mild renal impairment, fasted",37.2 ng/mL
CCCCCCc1ccc(Oc2ccccc2C#N)c(O)c1,"CD-1 mice, plasma","subcutaneous, 100 mg/kg",760 ± 540 ng/mL
CC(C)(C)ONc1nc(Nc2ccnc(C(F)(F)F)c2)nc(-c2cccc(C(F)(F)F)n2)n1,"female Balb/cA nude mice xenograft, plasma","oral, 18.05 mg/kg",2280 ng/mL
N=C(N)NCCC[C@@H]1NC(=O)[C@H](Cc2c[nH]c3ccccc23)NC(=O)[C@@H](CC2CCCCC2)NC(=O)[C@@H]2CCCN2C(=O)[C@@H](NC(=O)CCc2ccccc2)CCCNC1=O,"C57BL/6J mice, spinal cord","intraperitoneal, 1 mg/kg",220 ng/g
Cc1ccc(OCC(=O)N(Cc2cccs2)c2ccn[nH]2)cc1,"male Sprague-Dawley rat, plasma","intravenous, 1 mg/kg, single dose",900 ng/mL
CSCOC1C(=O)C2(C)C(OCSC)CC3OCC3(OC(C)=O)C2C(OC(=O)c2ccccc2)C2(O)CC(OC(=O)C(O)C(C=C(C)C)NC(=O)OC(C)(C)C)C(C)=C1C2(C)C (stereo not drawn),"female Sprague-Dawley rat, plasma","intravenous, 1 mg/kg",67.6 ng/mL
CN1CCN(c2cc(-c3ccccc3CO)c(N(C)C(=O)C(C)(C)c3cc(C(F)(F)F)cc(C(F)(F)F)c3)cn2)CC1,"healthy volunteers, plasma","oral, dose not given, netupitant-palonosetron fixed-dose combination",60.1 ng/mL
Cn1c(=O)oc2ccc(-c3ccc(CC(C#N)NC(=O)C4CNCCCO4)c(F)c3)cc21 (stereo not drawn),"human, plasma","20 mg once daily, day 28, geometric mean",161 ng/mL
Oc1cc(F)ccc1Oc1ccccc1,"CD-1 mice, plasma","subcutaneous, dose not given",1820 ng/mL
CCc1c2c(nc3ccc(O)cc13)-c1cc3c(c(=O)n1C2)COC(=O)[C@]3(O)CC,"human patients, plasma","intravenous, 75 mg/m^2 of parent drug",227 ng/mL
CC1=C(/C=C/C(=O)N2CCN(C(N)=O)CC2)C(C)(C)CCC1,"female mice, retina","oral, 20 mg/kg",2.13 nmol/g
CC=C1C(OC2OC(CO)C(O)C(O)C2O)OC=C(C(=O)OC)C1CC(=O)OCC1OC(OCCc2ccc(O)cc2)C(O)C(O)C1O (stereo not drawn),"pseudo-germfree tumour-bearing Balb/c mice, plasma","oral, 109.2 mg/kg",2440 ng/mL
C[Si](C)(C)C[C@H](CN)CC(=O)O,"male Sprague-Dawley rat, plasma","oral, 100 mg/kg, single dose",482 µM
Cc1ccc(OCC(=O)O)cc1,"Sprague-Dawley rat Crl:CD(SD), male, plasma","oral, 30 mg/kg/day of parent drug, day 90, 90-day repeated dosing",2450 ± 274 ng/mL

# Excerpt of the above:
Structure (SMILES),system,conditions,Cmax
CC1=C(/C=C/C(=O)N2CCN(C(N)=O)CC2)C(C)(C)CCC1,"female mice, retina","oral, 20 mg/kg",2.13 nmol/g
CC=C1C(OC2OC(CO)C(O)C(O)C2O)OC=C(C(=O)OC)C1CC(=O)OCC1OC(OCCc2ccc(O)cc2)C(O)C(O)C1O (stereo not drawn),"pseudo-germfree tumour-bearing Balb/c mice, plasma","oral, 109.2 mg/kg",2440 ng/mL
C[Si](C)(C)C[C@H](CN)CC(=O)O,"male Sprague-Dawley rat, plasma","oral, 100 mg/kg, single dose",482 µM
